# Published values pooled from the literature.
# Parts stem from different laboratories: compare values within a part only. Positions count from the first letter of the parent shown.
# UniProt P27361, sequence (whole entry, looked up): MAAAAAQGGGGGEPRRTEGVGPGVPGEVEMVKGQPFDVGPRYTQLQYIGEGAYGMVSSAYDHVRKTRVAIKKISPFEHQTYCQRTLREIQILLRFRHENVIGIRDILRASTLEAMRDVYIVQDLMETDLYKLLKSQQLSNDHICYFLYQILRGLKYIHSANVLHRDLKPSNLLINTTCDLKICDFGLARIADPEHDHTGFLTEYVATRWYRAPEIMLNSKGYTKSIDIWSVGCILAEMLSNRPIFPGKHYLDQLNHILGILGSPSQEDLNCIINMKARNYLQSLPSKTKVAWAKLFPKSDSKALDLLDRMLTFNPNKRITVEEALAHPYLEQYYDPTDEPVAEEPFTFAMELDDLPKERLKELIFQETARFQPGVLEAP
# UniProt P49841, sequence (whole entry, looked up): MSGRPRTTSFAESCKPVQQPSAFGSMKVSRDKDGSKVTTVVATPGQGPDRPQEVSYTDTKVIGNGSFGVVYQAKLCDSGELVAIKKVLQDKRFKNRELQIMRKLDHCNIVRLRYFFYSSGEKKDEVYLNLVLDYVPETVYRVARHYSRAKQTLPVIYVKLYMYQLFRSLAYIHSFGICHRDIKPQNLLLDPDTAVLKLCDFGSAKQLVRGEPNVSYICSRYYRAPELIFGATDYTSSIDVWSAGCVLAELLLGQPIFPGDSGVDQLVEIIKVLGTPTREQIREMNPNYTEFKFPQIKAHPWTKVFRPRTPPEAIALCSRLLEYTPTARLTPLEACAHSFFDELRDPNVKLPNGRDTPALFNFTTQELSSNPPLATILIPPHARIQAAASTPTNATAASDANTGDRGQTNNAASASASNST
# UniProt P25098, sequence (whole entry, looked up): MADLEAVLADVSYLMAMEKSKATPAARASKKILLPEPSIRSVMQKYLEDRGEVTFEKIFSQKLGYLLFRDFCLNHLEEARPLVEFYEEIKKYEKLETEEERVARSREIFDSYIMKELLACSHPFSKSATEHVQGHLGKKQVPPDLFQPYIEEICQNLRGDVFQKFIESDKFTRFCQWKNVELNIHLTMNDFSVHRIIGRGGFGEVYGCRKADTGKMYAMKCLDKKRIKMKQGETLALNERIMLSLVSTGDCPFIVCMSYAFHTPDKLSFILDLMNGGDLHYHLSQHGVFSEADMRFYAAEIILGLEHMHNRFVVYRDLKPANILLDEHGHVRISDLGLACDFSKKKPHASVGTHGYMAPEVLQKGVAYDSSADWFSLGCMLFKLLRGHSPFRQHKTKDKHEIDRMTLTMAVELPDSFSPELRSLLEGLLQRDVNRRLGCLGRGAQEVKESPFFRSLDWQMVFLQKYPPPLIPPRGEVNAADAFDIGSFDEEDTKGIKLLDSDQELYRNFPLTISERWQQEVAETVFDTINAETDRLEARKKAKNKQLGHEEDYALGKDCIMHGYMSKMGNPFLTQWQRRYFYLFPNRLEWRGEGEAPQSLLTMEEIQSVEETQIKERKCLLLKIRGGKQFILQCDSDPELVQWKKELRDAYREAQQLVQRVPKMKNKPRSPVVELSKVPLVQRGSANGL
# UniProt Q9UHD2, sequence (whole entry, looked up): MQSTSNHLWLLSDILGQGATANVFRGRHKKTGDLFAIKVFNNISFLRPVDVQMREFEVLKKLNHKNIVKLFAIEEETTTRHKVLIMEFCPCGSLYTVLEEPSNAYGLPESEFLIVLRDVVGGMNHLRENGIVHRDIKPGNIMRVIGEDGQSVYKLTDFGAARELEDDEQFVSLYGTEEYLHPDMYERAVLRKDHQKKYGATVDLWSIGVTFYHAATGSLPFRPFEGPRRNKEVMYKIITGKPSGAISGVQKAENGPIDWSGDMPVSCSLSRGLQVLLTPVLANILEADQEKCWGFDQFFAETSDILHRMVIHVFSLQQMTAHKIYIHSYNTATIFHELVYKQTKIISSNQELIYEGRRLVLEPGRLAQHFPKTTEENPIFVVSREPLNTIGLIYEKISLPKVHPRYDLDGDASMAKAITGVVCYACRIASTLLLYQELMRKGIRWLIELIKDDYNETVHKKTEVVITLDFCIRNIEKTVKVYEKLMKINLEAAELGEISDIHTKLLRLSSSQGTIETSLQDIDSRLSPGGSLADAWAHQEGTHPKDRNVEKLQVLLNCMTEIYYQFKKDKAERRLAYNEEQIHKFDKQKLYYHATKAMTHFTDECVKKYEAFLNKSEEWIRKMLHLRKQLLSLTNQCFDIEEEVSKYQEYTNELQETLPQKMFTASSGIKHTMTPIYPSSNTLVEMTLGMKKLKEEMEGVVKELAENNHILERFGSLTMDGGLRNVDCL
# UniProt Q9HC98, sequence (whole entry, looked up): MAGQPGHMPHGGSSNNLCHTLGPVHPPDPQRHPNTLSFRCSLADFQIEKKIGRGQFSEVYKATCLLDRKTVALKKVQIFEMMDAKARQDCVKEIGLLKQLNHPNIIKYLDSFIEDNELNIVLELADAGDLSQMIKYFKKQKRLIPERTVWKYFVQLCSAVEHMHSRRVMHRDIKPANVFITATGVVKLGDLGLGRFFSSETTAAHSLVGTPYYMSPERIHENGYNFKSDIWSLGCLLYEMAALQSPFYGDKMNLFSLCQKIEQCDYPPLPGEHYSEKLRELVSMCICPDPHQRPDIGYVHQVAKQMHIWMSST
# UniProt P29320, sequence (whole entry, looked up): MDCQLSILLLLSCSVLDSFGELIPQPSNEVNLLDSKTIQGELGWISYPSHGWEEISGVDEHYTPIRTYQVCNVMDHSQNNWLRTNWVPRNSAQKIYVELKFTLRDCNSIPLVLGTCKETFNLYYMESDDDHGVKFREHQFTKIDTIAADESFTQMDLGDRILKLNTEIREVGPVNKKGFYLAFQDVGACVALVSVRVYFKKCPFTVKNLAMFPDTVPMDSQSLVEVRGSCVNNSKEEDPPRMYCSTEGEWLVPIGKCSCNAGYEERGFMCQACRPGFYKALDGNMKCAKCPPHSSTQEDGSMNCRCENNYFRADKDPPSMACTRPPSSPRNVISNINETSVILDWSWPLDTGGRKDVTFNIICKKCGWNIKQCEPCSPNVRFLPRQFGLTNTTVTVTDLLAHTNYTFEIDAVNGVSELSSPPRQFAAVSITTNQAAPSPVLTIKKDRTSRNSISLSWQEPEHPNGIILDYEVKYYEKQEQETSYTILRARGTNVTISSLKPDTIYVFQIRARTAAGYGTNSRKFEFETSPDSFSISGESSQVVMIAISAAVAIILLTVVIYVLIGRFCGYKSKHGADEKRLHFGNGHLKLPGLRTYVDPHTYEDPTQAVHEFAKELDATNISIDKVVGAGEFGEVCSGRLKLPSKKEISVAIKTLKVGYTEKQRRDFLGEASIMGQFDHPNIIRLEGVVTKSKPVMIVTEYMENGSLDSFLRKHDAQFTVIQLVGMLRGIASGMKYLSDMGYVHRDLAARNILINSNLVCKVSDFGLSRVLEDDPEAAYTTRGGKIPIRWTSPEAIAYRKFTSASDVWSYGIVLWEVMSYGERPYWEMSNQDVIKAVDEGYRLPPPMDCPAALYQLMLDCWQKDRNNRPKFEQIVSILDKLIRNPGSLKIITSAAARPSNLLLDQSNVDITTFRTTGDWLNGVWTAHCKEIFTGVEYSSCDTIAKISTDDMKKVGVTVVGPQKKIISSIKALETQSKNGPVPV
# UniProt Q16659, sequence (whole entry, looked up): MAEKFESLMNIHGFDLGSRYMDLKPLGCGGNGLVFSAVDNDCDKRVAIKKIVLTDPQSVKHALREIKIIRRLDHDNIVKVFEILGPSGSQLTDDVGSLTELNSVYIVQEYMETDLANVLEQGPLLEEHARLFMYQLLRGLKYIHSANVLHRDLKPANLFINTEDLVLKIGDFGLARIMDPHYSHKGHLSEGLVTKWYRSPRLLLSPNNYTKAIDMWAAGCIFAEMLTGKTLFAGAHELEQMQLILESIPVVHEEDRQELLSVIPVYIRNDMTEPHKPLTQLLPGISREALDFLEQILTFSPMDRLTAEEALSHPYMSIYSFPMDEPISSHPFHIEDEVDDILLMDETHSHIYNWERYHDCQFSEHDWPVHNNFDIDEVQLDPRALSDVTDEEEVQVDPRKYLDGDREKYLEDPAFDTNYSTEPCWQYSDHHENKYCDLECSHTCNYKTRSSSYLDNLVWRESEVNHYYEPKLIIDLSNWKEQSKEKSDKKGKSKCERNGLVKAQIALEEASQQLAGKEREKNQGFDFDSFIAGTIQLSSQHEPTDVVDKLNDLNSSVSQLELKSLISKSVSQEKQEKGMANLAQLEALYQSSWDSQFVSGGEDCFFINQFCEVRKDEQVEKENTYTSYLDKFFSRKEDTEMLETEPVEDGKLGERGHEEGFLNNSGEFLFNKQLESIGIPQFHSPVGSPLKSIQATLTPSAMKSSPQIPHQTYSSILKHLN
# UniProt P11309, sequence (whole entry, looked up): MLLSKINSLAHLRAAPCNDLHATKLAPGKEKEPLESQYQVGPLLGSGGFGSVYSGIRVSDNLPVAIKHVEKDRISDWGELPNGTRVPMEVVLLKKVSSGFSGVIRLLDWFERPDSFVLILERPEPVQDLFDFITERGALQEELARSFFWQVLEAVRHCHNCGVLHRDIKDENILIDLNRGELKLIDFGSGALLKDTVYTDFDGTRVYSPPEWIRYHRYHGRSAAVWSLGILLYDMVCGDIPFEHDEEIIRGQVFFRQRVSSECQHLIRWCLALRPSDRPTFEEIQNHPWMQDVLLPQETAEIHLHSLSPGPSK

# Set 1 — effect on: enzyme activity; action: inhibitor; tested at: 0.5 µM; relative to: control
# Compound: O=C(c1cc2cc(O)ccc2[nH]1)c1cc2cc(O)ccc2[nH]1
target,remaining activity [%]
"TBK1 (Homo sapiens, UniProt Q9UHD2)",35
"NEK6 (Homo sapiens, UniProt Q9HC98)",99.6
"EPHA3 (Homo sapiens, UniProt P29320)",101
"FGFR1 (Homo sapiens, UniProt P11362)",86.5
"ULK2 (Homo sapiens, UniProt Q8IYT8)",94.5
"GSK3B (Homo sapiens, UniProt P49841)",78.7
"TAOK2 (Homo sapiens, UniProt Q9UL54)",99
"MAPK3 (Homo sapiens, UniProt P27361)",107
"MAP3K14 (Homo sapiens, UniProt Q99558)",77.1
"CSNK1G2 (Homo sapiens, UniProt P78368)",93.8
"MAP3K5 (Homo sapiens, UniProt Q99683)",89.6
"MAP2K2 (Homo sapiens, UniProt P36507)",98.8
"TEK (Homo sapiens, UniProt Q02763)",104
"CSNK1G3 (Homo sapiens, UniProt Q9Y6M4)",77.2

# Set 2 — effect on: cell-free assay; method: competition with immobilised ligand; tested at: 1 µM
# Structure (SMILES): COc1ccc2c(O[C@@H]3C[C@H]4C(=O)N[C@]5(C(=O)O)CC5/C=C\CCCCC[C@H](NC(=O)OC5CCCC5)C(=O)N4C3)cc(-c3csc(NC(=O)C(C)C)n3)nc2c1C (stereo partly drawn)
target,remaining binding [%]
"MAPK3 (Homo sapiens, UniProt P27361)",94
"FLT4 (Homo sapiens, UniProt P35916)",100
"GRK2 (Homo sapiens, UniProt P25098)",83
"MAPK6 (Homo sapiens, UniProt Q16659)",93
"PIM1 (Homo sapiens, UniProt P11309)",97
"PI4KB (Homo sapiens, UniProt Q9UBF8)",71

# Set 3 — target: NFE2L2, bZIP domain (human); method: DHFR protein complementation; sample: yeast; relative to: wild-type JUN-FOS pair; direction: higher = stronger binding
# Notes: single substitutions, most at no-binding floor
# Parent: JUN, bZIP domain (human); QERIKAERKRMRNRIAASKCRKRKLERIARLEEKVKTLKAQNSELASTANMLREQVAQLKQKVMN; partner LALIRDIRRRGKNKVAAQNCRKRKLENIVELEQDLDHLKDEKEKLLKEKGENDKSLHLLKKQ
Variant,binding fitness
V35L,-1.46 natural log
E44V,-1.32 natural log
N42R,-1.37 natural log
A49L,-1.44 natural log
L45F,-1.29 natural log
E44S,-1.5 natural log
Q55R,-1.52 natural log
T37M,-1.55 natural log

# Set 4 — method: competition protein-binding microarray; molecule type: double-stranded DNA, one strand shown; sample: in vitro; tested at: 2 µM; together with: Pho4 competitor, 0.05 µM; direction: higher = stronger binding; all sequences stand within: … GTCTTGATTCGCTTGACGCTGCTG
# Target: Centromere-binding protein 1, full length, His-tagged (CBF1, Saccharomyces cerevisiae, UniProt P17106, residues 1-351)
# UniProt P17106, sequence (whole entry, looked up): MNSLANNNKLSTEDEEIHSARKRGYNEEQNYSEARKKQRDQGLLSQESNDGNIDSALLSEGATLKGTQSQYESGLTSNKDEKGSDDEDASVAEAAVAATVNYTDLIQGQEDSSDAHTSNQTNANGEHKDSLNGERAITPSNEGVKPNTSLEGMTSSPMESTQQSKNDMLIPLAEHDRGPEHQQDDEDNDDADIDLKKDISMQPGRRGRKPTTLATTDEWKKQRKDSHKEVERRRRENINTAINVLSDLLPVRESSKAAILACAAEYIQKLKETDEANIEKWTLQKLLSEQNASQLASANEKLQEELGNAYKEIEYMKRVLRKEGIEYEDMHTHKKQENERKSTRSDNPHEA
# Notes: whole 60-bp probe, lowest competitor level
Strand,fluorescence intensity
TACCACACAGTCATACTCGTGATGGATTATGTGGTA,250 a.u.
ATGGCATCTTGCGGGAACGTGCAAAAAAGCTCAATG,96.4 a.u.
CGCCTTAATCGCTCCGGCGTGGGTAAAGAAAGCAGA,57.4 a.u.
GTACTAATTACACTGCAAGTGTGCCTATTCTTCCTT,87.6 a.u.
TGCGCAACAACTTGTCACTTTACTTTATGTCTAGAA,83.7 a.u.
TCCGCGAGTCATCTCGACATGACAATCTTTTGCTAG,82 a.u.
TGGCAATGGCCACTCACCGTGCCAGGCCTGCAAGTC,78.1 a.u.
CTAACGAAGGTTTGTCACGGGACTTACAAGCCAAGT,1360 a.u.

# For quick reference, copied from above (set 1):
target,remaining activity [%]
"CSNK1G3 (Homo sapiens, UniProt Q9Y6M4)",77.2
"TEK (Homo sapiens, UniProt Q02763)",104
